Published values gathered from unrelated publications.
Lines come from different studies, so protocols differ.
Spike glycoprotein: Spike glycoprotein (Severe acute respiratory syndrome coronavirus 2, UniProt P0DTC2)

For `Cc1nc2n(n1)CC(=O)N[C@@H](C(C)C)CN(C(=O)c1cccnc1)CC(=O)N[C@@H](CC(C)C)c1nc(cs1)C(=O)N[C@H]2Cc1ccccc1`, the remaining activity was 90% (Lassa mammarenavirus; viral replication; Huh-7; 10 µM, 72 h).
With `O=C(/C=C/c1ccc(O)c(O)c1)OC[C@H]1O[C@@H](OCCc2ccc(O)c(O)c2)[C@H](O)[C@@H](O)[C@@H]1O` the Kd was 11 µM (Spike glycoprotein; binding, biolayer interferometry).
Under “subjects with treatment-emergent ADA”, `CC[C@H](C)[C@H](NC(=O)[C@H](CC(C)C)NC(=O)[C@H](Cc1c[nH]c2ccccc12)NC(=O)[C@H](CCC(N)=O)NC(=O)[C@@H](NC(=O)[C@H](Cc1ccccc1)NC(=O)[C@H](C)NC(=O)[C@H](CCCCNC(=O)COCCOCCNC(=O)COCCOCCNC(=O)CC[C@H](NC(=O)CCCCCCCCCCCCCCCCCCC(=O)O)C(=O)O)NC(=O)[C@H](CCC(N)=O)NC(=O)[C@H](C)NC(=O)[C@@H](NC(=O)[C@H](CCCCN)NC(=O)[C@H](CC(=O)O)NC(=O)[C@H](CC(C)C)NC(=O)C(C)(C)NC(=O)[C@@H](NC(=O)[C@H](CO)NC(=O)[C@H](Cc1ccc(O)cc1)NC(=O)[C@H](CC(=O)O)NC(=O)[C@H](CO)NC(=O)[C@@H](NC(=O)[C@H](Cc1ccccc1)NC(=O)[C@@H](NC(=O)CNC(=O)[C@H](CCC(=O)O)NC(=O)C(C)(C)NC(=O)[C@@H](N)Cc1ccc(O)cc1)[C@@H](C)O)[C@@H](C)O)[C@@H](C)CC)[C@@H](C)CC)C(C)C)C(=O)N[C@@H](C)C(=O)NCC(=O)NCC(=O)N1CCC[C@H]1C(=O)N[C@@H](CO)C(=O)N[C@@H](CO)C(=O)NCC(=O)N[C@@H](C)C(=O)N1CCC[C@H]1C(=O)N1CCC[C@H]1C(=O)N1CCC[C@H]1C(=O)N[C@@H](CO)C(N)=O` is recorded as 0% (item: anti-drug antibodies; healthy human subjects; 1.5 mg multiple ascending, post-baseline).
`COc1c(F)cccc1C(=O)N1CC(=O)N[C@@H](CC(C)C)c2nc(cs2)C(=O)N[C@@H](Cc2ccccc2)c2nc(C)nn2CC(=O)N[C@@H](C(C)C)C1` gave a remaining activity of 92% (Lassa mammarenavirus; viral replication; Huh-7; 10 µM, 72 h).
`CC1=C(/C=C/C(C)=C/C=C/C(C)=C/C(=O)Nc2ccc(O)cc2)C(C)(C)CCC1` has an EC50 of over 100 µM (SARS-CoV-2; viral replication, GFP plate reader screen; cell-based).
With `CC(Nc1nc(N2CCN(CCN)CC2)nc2ccccc12)c1ccccc1` (stereo not shown) the AC50 was 7.94 µM (SARS-CoV-2; cytopathic effect; USA_WA1/2020).
`CCc1c(C(=O)C(N)=O)c2c(OCC(=O)O)cccc2n1Cc1ccccc1` — result for “time of death”: over 24 h (Daboia russelii; mouse; 90 µg, up to 24 h, added: southern venom preincubated).
The inhibition of `Nc1ncnc2c([C@@H]3N[C@H](CO)[C@@H](O)[C@H]3O)c[nH]c12` is reported as 97.3% (Marburg marburgvirus; viral RNA in cell lysate; HeLa, Musoke; 25 µM).
`Cn1cnc(Cn2c(=O)[nH]/c(=N\c3cc4cn(C)nc4cc3Cl)n(Cc3cc(F)c(F)cc3F)c2=O)n1` — result for “patients with adverse event”: 12.5% (human, moderate renal impairment; oral, 375 mg, treatment-related decreased GFR, Moderate severity).
With `Cc1cc(C)cc(-c2ccc(CN3CCCC3C(=O)NCc3cccc(F)c3)cc2)c1` (stereo not shown) the efficacy was 15.1% (SARS-CoV-2; cytopathic effect; USA_WA1/2020; retest, 8-point, duplicates).
`CC(C)=CCc1c(O)ccc(C(=O)/C=C/c2ccc(O)cc2)c1O` has a Kd of 5.7 µM (Spike glycoprotein; binding).
With `O=C(Cc1cccnc1)N1CCC(c2cc(Cc3ccccc3)n[nH]2)CC1` the remaining activity was 35% (Lassa mammarenavirus; viral replication; Huh-7; 10 µM, 72 h).
For `COc1cccc(-c2ccc(CN3CCCC(c4nc5ccc(C)cc5c(=O)[nH]4)C3)cc2)c1` (stereo not shown), the AC50 was 4.47 µM (SARS-CoV-2; cytopathic effect, cell-based CPE; USA_WA1/2020; round 2, 5-point dilution).

Some of these lines once more:
For `Cc1nc2n(n1)CC(=O)N[C@@H](C(C)C)CN(C(=O)c1cccnc1)CC(=O)N[C@@H](CC(C)C)c1nc(cs1)C(=O)N[C@H]2Cc1ccccc1`, the remaining activity was 90% (Lassa mammarenavirus; viral replication; Huh-7; 10 µM, 72 h).
